# Assay results of several laboratories.
# Every numbered part comes from another study and shows a few of its results, in no order.

# Block 1
# Target: TAR DNA-binding protein 43, full length, His tag (TARDBP, Homo sapiens, UniProt Q13148, residues 1-414)
# Method: RNA Bind-n-Seq
# Form: RNA
# Matrix: in vitro
# Concentration: 20 nM
# Setting: 6-mer, flanks averaged, single round
# With: 150 mM LiCl
# Relative to: input library
# Reading: higher = stronger binding
Sequence,6-mer enrichment (R)
GGAGCU,0.983
CGAACU,0.855
CCUUUU,1.23
GCCGGU,0.973
UCAUGC,0.881
UACGUG,1.03
AAGGAC,0.873
AUAGUC,0.85
CAGUGU,1.17
AGAACA,0.93
CAGUCU,0.83
UUGGGA,1.13
AUCUCU,0.865
CUUCCU,0.918
CGCAGG,0.959
GGACGC,0.992
CCCAAU,1.01
UGGUAU,1.19
GUUCUG,0.99
CAUUAU,0.962

# Block 2
# Target: RNA binding protein fox-1 homolog 2, RRM domain, GST-SBP tag (RBFOX2, Homo sapiens, UniProt O43251-10, residues 100-194)
# Method: RNA Bind-n-Seq
# Form: RNA
# Matrix: in vitro
# Concentration: 365 nM
# Setting: natural RNA segment, single round, ends assumed
# Relative to: no-protein control
# Reading: higher = stronger binding
# Constant ends, left off below: GGGAGUUCUACAGUCCGACGAUC … UGGAAUUCUCGGGUGCCAA
# Residues (chain): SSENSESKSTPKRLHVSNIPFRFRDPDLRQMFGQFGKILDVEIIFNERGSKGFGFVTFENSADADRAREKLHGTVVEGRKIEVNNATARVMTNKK
Sequence,RBNS enrichment (R)
UGAUGAGGAGUUGGGGCCCUGUCUGUCCUAGGCCUGGAGAGUGCCUGUCUGGGAAAAGGUCACUGGACCUGGAAGGGUCCCCAGGGUCCCCUGACUCCCGUCUCCAUCUG,0.309
UUGACCCACCAUCCGUUGCAGAAGCCUCCAGGAGCAGCAAUCCUAAGAGUGGGAGGCAGCCAAGACCCCCUUCCUUCAAAACCUCCCGGAAGUGGUUUCAGGCCCUCUAG,0.404
AUGUUAUUUUCUAAAAUUGUCAUUCCUUUGCAACAUAUGAGCAUUAAUAUCUUUUCUCUUUUAACAUUGAAGAAAUGGGAAAUUUCAUUAAUGACAUUGUUGUUGAUAAA,0.449
AUUGGUUUUGUGGGCAGUUUAAUAAACCUGAACCUUUGUGUGUUUUCUAAUUGUACCUGAGUUGACCAUCCUUUCUUUUUAUAGUAUAUUUCUUGUAUGAUAUUUUGUAA,0.651
GCCUGGCACUGGGUAAAUGUAUAGUUAAAGUAGUAGCCACAACGUUGUUCUUAUUCCUAGGUCAGGGUAGUACAAAUUACGGAAAGAGCCAGCGACGUGGUGGUCAUCAG,0.498
AGGAGAUGUCAUGACAACACUACACGCACCCAAUAAAGCGAAUGGACCAUCCAUGUGUGUCCCUGUGGCACCGGGUCCUGCCCACCCUGGUUUUGAUCAUCCACAGCAUU,1.4
ACUUCCCUUUUUGCACUUAGAUAACUUCCUACUUCAACCCCCUCCUUUAUCUUGGAUUUCUAAAGUUUUUCCCCAAUAUUGGGAAUGGUGAGGGUGGGGAUGAGAGACUC,0.371
ACAGUGUUGUUUGCCUUGCUCACUUGUAACCCCCUCCUCGGAUCUAGGAGAAUGGGAGGAGGGUCUCGUGGAAAUGUAGCUAUUGGAUCUUUCCUGCACUUAUGGAAAUG,0.979
UCCUUCCUUUUCCUUCUUCCUCCAGGUUUUUCAGGGGUCACUUCACAUUUCUAAAGAAAGAGUGAAUAGGCUGGGCAUGGUGGCUCAAGCCUCUAAUCUCAACGCUUUGG,0.517
AGACUCUGAUGGAAGGAAGGUGCCGUAGGUGGGCUUUUAGAAACUAACGGGACUGGUUUUCAAAGCAGUUAUCUUGGGAAACUGUUUAUUCCAGCGAUGUGACUUUUUUC,0.567
AACAUAGAUUGUAUCACCCAUAUAUUCUUGAAUACACUUGUUUGGUUUGGUAUUACUUUGACUAUGUCCACAAUAGCAGCAAUCUUGGCUUUUUGUUAGCCAAAGUGUUC,0.382
UAAGAAAAAUUUAAACAGUUUAAGAUUAUAUAAUUUUUUUUUCUUUUCUAUAUUGAGGUGGCCACCAUACUAAUAUUCUAAAUUUUCAAUAUUUGAACUUUUAACUCUUG,0.826

# Block 3
# Target: Prothrombin, mature alpha-thrombin (F2, Homo sapiens, UniProt P00734)
# Method: aptamer microarray, sandwich
# Form: DNA with 2'F-ANA
# Matrix: in vitro
# Concentration: 200 nM
# Setting: whole 15-mer aptamer, many near background
# With: Cy3 exosite-II aptamer, 400 nM
# Reading: higher = stronger binding
# Sequence: GGTTGGTGTGGTTGG
Modification,mean fluorescence intensity
2'F-ANA at 2 3 11 12 15,940 a.u.
2'F-ANA at 1 2 4 6 7 9 12 13 14 15,56.8 a.u.
2'F-ANA at 1 2 5 8 12 13,84.4 a.u.
2'F-ANA at 3 7 8 9 10 12 14,436 a.u.
2'F-ANA at 3 6 7 8 10 11 15,444 a.u.
2'F-ANA at 1 5 6 8 9 10 14 15,52.3 a.u.
2'F-ANA at 4 6 7 9 10 13,64.6 a.u.
2'F-ANA at 1 2 3 5 6 7 12,110 a.u.
2'F-ANA at 1 3 5 9 11 12 13 15,75.3 a.u.
2'F-ANA at 7 11 13 14 15,220 a.u.
2'F-ANA at 1 2 3 4 5 8 10 11 15,72.9 a.u.
2'F-ANA at 1 2 3 4 5 6 7 8 10 11 15,178 a.u.
2'F-ANA at 1 3 6 7 8 9 11,258 a.u.
2'F-ANA at 1 3 5 6 7 8 10 12 13 14 15,68.2 a.u.
2'F-ANA at 2 3 5 7 9 11 12 14,52.2 a.u.
2'F-ANA at 3 5 6 7 11 12 13 15,133 a.u.
2'F-ANA at 1 5 7 8 13,48.5 a.u.
2'F-ANA at 1 2 6 7 8 10 12 13 14 15,53.3 a.u.
2'F-ANA at 5 6 9 12 15,139 a.u.
2'F-ANA at 1 3 4 5 6 7 10 12 14 15,55.3 a.u.
2'F-ANA at 4 6 8 9 10 12 13 15,73.9 a.u.
2'F-ANA at 1 3 5 8 10 12 13 14,48.1 a.u.
2'F-ANA at 1 3 4 5 6 7 8 11 12 14,85.3 a.u.
2'F-ANA at 2 4 5 9 10 11 15,68.1 a.u.
2'F-ANA at 3 4 7 8 11 12 15,911 a.u.

# Block 4
# Target: Ras GTPase-activating protein-binding protein 1, full length (G3BP1, Homo sapiens, UniProt Q13283)
# UniProt Q13283, sequence (whole entry, looked up): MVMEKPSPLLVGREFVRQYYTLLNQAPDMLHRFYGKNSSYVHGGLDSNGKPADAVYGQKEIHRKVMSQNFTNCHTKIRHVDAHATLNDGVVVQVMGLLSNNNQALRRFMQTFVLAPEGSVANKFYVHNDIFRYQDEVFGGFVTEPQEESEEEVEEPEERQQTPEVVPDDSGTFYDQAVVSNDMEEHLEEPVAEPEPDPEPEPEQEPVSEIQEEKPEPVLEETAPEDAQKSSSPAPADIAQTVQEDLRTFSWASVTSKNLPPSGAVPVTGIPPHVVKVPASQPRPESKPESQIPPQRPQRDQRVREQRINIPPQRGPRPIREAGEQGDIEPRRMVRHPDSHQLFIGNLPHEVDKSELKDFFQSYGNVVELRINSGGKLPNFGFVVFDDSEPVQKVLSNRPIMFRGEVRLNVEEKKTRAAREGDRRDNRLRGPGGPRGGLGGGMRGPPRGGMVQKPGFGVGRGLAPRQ
# Method: RNA Bind-n-Seq
# Form: RNA
# Matrix: in vitro
# Concentration: 200 nM
# Setting: whole 134-nt RNA, ends assumed
# With: 150 mM LiCl
# Relative to: input library
# Reading: higher = stronger binding
# All molecules: 7-deaza-guanosine replaces G
# Constant ends, left off below: GGGAGUUCUACAGUCCGACGAUC … UGGAAUUCUCGGGUGUCAAGG
Sequence,log2 enrichment
GUCCUGUGCUACACAUCGUAUGUACCGAAUCGGGAAAAAAAGGGUGGGUUUUUUUGGGAAAGUAUUAUGUUACGCCGUUCGGAUCUGCAC,-0.886
AAGUCCUGUGCUACACAUCGUAUGUACCGAAUCGGGUUUUGGUUUUGGGUUUUGGGAAAGUAUUAUGUUACGCCGUUCGGAUCUGCACUU,-0.542
UCCUGUGCUACACAUCGUAUGUACCGAAUCGGCCCCCCGGGGCCCCCCGGCCCCCCGGGGAAAGUAUUAUGUUACGCCGUUCGGAUCUGC,-1.36
ACCAUGCAGGUGGGCAUCUUUGGGAAGUGGGGCAAGGGGGGGAUAGGGAGGGGGGUAACACUUUGGGAACAGGUUGUCCCAGGUCGUUUC,0.299
UGGCCCUGGUGGCAUGCGGGGAGGAAGAGGUGGCCUCAUGGAUCGUGGUGGUCCCGGUGGAAUGUUCAGAGGUGGCCGUGGUGGUGACAG,-0.0866
CACAGACAACACGCAGCCACACAGACACAGAGGGAAGGGGUUGGGAUGGGGACAGGGUGCACAGCAGGGCGGGGUAGGACCCCAGCCCCU,0.701
UCCUCAAGUCCUGUGCUACACAUCGUAUGUACCGAAUCGGUGGGUGGGUGGAAAGUAUUAUGUUACGCCGUUCGGAUCUGCACUUCCAGC,0.805
AAGUCCUGUGCUACACAUCGUAUGUACCGAAUCGGUUUUUGGAAAAAAAGGAAAGGAAAGUAUUAUGUUACGCCGUUCGGAUCUGCACUU,-2.1
CUGUGCUACACAUCGUAUGUACCGAAUCGGGGAAAAAGGGGUUUUUGGGGAAAAAAAGGGGAAAGUAUUAUGUUACGCCGUUCGGAUCUG,0.204
UCCUCAAGUCCUGUGCUACACAUCGUAUGUACCGAAUCGGAAAGGUGGAGGAAAGUAUUAUGUUACGCCGUUCGGAUCUGCACUUCCAGC,-0.82
CCUCAAGUCCUGUGCUACACAUCGUAUGUACCGAAUCGGAAAGGAAAGGAGGAAAGUAUUAUGUUACGCCGUUCGGAUCUGCACUUCCAG,-0.219

# Block 5
# Target: Histone acetyltransferase KAT6A, winged helix 1, GST fusion (KAT6A, Homo sapiens, UniProt Q92794, residues 1-85)
# Method: protein binding microarray
# Form: double-stranded DNA, one strand shown
# Matrix: in vitro
# Concentration: not given
# Setting: 8-mer, flanks averaged, mean of 2 arrays, mostly near background
# Relative to: not given
# Reading: higher = stronger binding
# Target sequence (chain): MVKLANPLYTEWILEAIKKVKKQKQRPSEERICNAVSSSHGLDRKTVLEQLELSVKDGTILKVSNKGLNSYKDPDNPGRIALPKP
Sequence,E-score
GCCCGCCC,0.424
AAGAGGGC,0.0876
ATTTTGCA,-0.297
TGACAAAA,-0.183
AGTCGCTG,0.0351
CATTGAGG,-0.167
ATAACTAC,-0.0124
AGTCAGCA,-0.0711
CATGACCC,0.0609
AGCGATGA,0.0659
CTACTGTC,0.0104
GAAACCAC,-0.198
ACTCGCTC,0.0125
GCTAGTTA,0.157
GGCGAAAA,0.133
ACGCCAAT,-0.0399
GCCTACCC,0.0394
GTATGCAC,-0.119
ACCGGCGC,0.426

# Block 6
# Target: Sal-like protein 4, full length isoform A (SALL4, Homo sapiens, UniProt Q9UJQ4, residues 1-1053)
# UniProt Q9UJQ4, sequence (whole entry, looked up): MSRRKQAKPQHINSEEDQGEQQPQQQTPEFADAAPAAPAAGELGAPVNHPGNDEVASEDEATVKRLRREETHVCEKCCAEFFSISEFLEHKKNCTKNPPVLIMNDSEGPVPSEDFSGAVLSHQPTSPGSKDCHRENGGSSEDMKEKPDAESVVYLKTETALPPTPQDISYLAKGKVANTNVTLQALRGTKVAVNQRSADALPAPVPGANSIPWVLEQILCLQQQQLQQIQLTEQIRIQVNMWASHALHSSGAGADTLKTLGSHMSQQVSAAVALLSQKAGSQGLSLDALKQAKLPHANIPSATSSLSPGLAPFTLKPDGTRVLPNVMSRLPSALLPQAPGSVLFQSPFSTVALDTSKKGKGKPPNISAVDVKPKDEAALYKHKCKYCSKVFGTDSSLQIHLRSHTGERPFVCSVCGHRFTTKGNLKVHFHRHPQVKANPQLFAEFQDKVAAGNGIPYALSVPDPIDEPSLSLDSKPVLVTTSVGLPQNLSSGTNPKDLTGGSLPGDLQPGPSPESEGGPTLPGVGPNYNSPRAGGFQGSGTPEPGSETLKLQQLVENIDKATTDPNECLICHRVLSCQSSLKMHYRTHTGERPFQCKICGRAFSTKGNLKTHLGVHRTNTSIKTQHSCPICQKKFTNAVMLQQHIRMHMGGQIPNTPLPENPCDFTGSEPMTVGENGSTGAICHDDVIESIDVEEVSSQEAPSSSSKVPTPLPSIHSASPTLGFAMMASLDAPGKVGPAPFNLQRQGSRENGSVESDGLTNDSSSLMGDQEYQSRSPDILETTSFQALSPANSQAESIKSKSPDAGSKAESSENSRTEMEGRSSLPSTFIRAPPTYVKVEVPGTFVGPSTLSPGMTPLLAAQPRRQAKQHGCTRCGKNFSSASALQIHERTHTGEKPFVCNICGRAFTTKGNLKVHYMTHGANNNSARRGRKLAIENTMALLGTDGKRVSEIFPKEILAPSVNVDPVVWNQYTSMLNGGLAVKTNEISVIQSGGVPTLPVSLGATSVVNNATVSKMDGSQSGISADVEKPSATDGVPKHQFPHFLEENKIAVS
# Method: universal PBM
# Form: double-stranded DNA, one strand shown
# Matrix: in vitro
# Concentration: 600 nM
# Setting: 8-mer, flanks averaged, mean of replicates
# Reading: higher = stronger binding
Sequence,E-score
CTCCAGAA,-0.166
AATTGGGA,0.102
CCATTCCC,-0.259
CGCTATAA,0.151
GTTCATCA,0.106
GTACCTAA,0.0313
AGCTCCAG,-0.246
CCGGGTAC,-0.37
CCTGATTC,-0.121
CATGCGGG,-0.309
AGCTCGTA,-0.0349
AAGAATAA,0.294
CTGTGCGA,0.0327
ATTACCCG,-0.00619
ACTTCTAT,0.172
CAGCGAGC,-0.0696
ACCTATCT,0.118
TAGCAATA,0.334
CAGCCAGC,-0.289
ATGATCTC,-0.0367
